# Published values pooled from the literature.
# Numbered parts are unrelated; each lists some results of a single study.

# Study 1
# Target: PABPC1L2, full length, GST fusion (mouse, UniProt A0ABA7IW68)
# Method: RNAcompete
# Form: RNA
# Matrix: in vitro
# Concentration: 20 nM
# Setting: 7-mer, probes averaged, single round
# Reference: mean of 7-mers
# Direction: higher = stronger binding
# Construct (chain): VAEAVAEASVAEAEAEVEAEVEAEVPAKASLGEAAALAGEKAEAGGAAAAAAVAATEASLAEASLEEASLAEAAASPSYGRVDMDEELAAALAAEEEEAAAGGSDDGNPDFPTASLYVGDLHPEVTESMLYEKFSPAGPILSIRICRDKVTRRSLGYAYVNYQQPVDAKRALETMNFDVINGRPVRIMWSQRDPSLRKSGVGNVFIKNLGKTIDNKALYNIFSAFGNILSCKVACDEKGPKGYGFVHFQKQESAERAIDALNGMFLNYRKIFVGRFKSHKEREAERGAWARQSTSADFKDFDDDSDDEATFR
Sequence,7-mer Z-score
AUUCUCU,-0.293
CGGUCGC,-0.235
UCAACUU,-0.324
UGGAGCU,-0.021
UGCGUGU,-0.296

# Study 2
# Target: Sal-like protein 4, full length isoform A (SALL4, Homo sapiens, UniProt Q9UJQ4, residues 1-1053)
# UniProt Q9UJQ4, sequence (whole entry, looked up): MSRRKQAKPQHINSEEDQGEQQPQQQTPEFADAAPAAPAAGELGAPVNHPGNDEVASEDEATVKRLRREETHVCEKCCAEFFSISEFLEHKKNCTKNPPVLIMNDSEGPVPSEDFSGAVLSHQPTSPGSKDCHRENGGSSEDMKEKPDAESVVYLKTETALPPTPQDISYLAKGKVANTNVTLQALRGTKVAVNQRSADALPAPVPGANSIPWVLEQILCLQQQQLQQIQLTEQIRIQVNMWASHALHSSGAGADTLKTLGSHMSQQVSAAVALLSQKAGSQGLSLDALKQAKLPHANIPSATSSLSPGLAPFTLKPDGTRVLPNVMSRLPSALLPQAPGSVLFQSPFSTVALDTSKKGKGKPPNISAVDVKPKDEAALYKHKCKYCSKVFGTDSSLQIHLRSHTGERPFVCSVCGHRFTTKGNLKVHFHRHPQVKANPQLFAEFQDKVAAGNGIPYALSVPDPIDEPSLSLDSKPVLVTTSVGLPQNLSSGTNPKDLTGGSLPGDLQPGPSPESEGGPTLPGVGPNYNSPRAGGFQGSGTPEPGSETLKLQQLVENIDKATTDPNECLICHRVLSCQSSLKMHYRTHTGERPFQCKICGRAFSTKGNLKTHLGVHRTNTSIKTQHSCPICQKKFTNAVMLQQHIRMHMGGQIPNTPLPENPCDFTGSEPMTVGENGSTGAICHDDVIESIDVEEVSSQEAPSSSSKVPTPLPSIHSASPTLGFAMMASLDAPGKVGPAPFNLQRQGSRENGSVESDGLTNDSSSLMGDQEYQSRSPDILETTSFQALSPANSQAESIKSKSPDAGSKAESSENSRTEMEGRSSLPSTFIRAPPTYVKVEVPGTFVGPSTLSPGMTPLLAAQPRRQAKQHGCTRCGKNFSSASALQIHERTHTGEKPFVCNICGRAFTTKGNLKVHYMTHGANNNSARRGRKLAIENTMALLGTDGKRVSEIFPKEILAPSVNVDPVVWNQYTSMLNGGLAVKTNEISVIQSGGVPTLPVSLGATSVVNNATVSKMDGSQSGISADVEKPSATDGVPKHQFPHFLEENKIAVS
# Method: universal PBM
# Form: double-stranded DNA, one strand shown
# Matrix: in vitro
# Concentration: 600 nM
# Setting: 8-mer, flanks averaged, mean of replicates
# Direction: higher = stronger binding
Sequence,E-score
TTATGAAA,0.447
CACCGACA,-0.187
GCTAAGTA,0.0775
GTCGACGA,-0.211
CTGAAGGA,-0.182
AAGATAAA,0.323

# Study 3
# Target: Interferon regulatory factor 7, full length, phosphomimetic (IRF7, Homo sapiens, UniProt Q92985, residues 1-503, S101K/S471D/S472D/S475D/S476D/S477D/S483D/S484D/S487D)
# Method: protein-binding microarray
# Form: double-stranded DNA, one strand shown
# Matrix: in vitro
# Concentration: 250 nM
# Setting: 60-bp whole probe
# Added: salmon DNA 0.4 mg/ml
# Reference: random background probes
# Direction: higher = stronger binding
# All sequences stand within: GCCTAGCAC … GTCTTGATTCGCTTGACGCTGCTG
# Construct (chain): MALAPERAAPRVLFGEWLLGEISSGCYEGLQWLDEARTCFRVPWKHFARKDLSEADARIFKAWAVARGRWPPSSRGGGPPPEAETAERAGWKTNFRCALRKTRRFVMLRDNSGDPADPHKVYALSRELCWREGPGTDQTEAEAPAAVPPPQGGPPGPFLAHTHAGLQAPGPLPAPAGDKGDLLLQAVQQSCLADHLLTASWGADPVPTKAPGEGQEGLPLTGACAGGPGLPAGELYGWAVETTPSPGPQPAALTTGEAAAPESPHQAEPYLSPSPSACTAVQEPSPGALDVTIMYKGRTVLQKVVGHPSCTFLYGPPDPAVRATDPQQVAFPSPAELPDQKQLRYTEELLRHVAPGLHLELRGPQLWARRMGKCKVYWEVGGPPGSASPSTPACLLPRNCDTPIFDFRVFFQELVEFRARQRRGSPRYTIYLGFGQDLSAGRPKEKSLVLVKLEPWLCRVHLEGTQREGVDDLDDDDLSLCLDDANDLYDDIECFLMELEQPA
Sequence,log fluorescence
TGAAGAATGCCTTTAATAAGGTGCTAG,-0.586 z-score
TCAGATTTCGATTACAAACTGTGCTAG,2.28 z-score
TTAGGTTACGACACTGGGTTAGTGCTA,-0.161 z-score
TCATATATGAATATATAACTGTGCTAG,0.356 z-score
GACGATATGGGGACTGGAGACGTGCTA,-0.364 z-score
TCACTTTCCACTTGTCTTACTGTGCTA,3.69 z-score

# Single results of other studies
Molecule,target,assay,system,setting,how to read,endpoint,result
"PhoQ, residues 284 288 289 292 302 303 SASVAL","PhoP, residues 12 14 15 18 19 TPWLV (Escherichia coli, UniProt P23836)","Sort-seq, refers to: YFP reporter",E. coli,"PhoQ-PhoP variant library, added: 10 µM Mg2+","reference: high Mg2+ state, higher = stronger signaling",fold induction,0.943

# For quick reference, copied from above (study 3):
Sequence,log fluorescence
TGAAGAATGCCTTTAATAAGGTGCTAG,-0.586 z-score
TCATATATGAATATATAACTGTGCTAG,0.356 z-score
TCACTTTCCACTTGTCTTACTGTGCTA,3.69 z-score
